Assay results pooled from the literature.
Compare with care: the assays were run in different laboratories.

CCCc1c(OC)c(=O)c2c(O)cc(OC)c3c4c(OC)cc(O)c5c(=O)c(OC)c(CCC)c(c1c23)c54
molar absorption coefficient (at 670 nm): 480 M⁻¹ cm⁻¹

NCCC(=O)N1Cc2ccccc2-c2c(nnn2-c2nc(N)c3ncn(C4OC(CO)C(O)C4O)c3n2)-c2ccccc21 (mixture of isomers)
molar absorption coefficient: 16400 M⁻¹ cm⁻¹

CCCOc1cc(O)c2c(=O)c(OC)c(C[C@@H](C)O)c3c4c(C[C@@H](C)O)c(OC)c(=O)c5c(O)cc(OCCC)c(c1c23)c54
molar absorption coefficient (at 670 nm): 360 M⁻¹ cm⁻¹

Cc1ccc(C(C)C)cc1.[Cl-].[Cl][Ru+].[Ru+].c1ccc(-c2cn(CCCCOc3ccccc3-c3nc4ccccc4s3)nn2)nc1
molar conductance (DMSO): 8 S cm²/mol

CCCCCCCCCCCCCCCC(=O)OCC(COP(=O)([O-])OCC[N+](C)(C)Cc1cn(-c2cc3ccc(OC(=O)Oc4ccc(CCC(=O)C(F)(F)F)cc4)cc3oc2=O)nn1)OC(=O)CCCCCCCCCCCCCCC (stereo not drawn)
molar extinction coefficient: 2780 M⁻¹ cm⁻¹

CCn1cc(/C=C/c2sc3ccccc3[n+]2CC)c2ccccc21
molar absorptivity (DMSO): 49700 M⁻¹ cm⁻¹

N[C@@H](CC(=O)O)C(=O)OC(C(=O)O)c1ccc(Br)cc1[N+](=O)[O-] (mixture of isomers)
molar extinction coefficient (wavelength 355 nm): 520 M⁻¹ cm⁻¹

Nc1ncnc2c1nc(-n1nnc3c1CCC1C(CO)C1CC3)n2C1OC(CO)C(O)C1O (mixture of isomers)
molar absorption coefficient: 21100 M⁻¹ cm⁻¹

Cc1ccc(C(C)C)cc1.[C-]#[O+].[C-]#[O+].[C-]#[O+].[Cl-].[Cl-].[Cl-].[Re+].[Ru+2].c1cnc(-c2ncccn2)nc1
molar conductivity (10% aqueous DMSO): 190 S m²/mol

CCn1cc(/C=C/c2ccc3ccccc3[n+]2CC)c2ccccc21
molar absorptivity (PBS): 22400 M⁻¹ cm⁻¹

COc1cc(OC)cc(C2=C3C(C)=C(I)C(C)=[N+]3[B-](F)(F)n3c(/C=C/c4c[nH]c5ccccc45)c(I)c(C)c32)c1
molar extinction coefficient (DMSO; λmax 636 nm): ~29000 M⁻¹ cm⁻¹

CCCc1c(OC)c(=O)c2c(O)c(Br)c(OC)c3c4c(OC)c(Br)c(O)c5c(=O)c(OC)c(CCC)c(c1c23)c54
molar absorption coefficient (at 670 nm): 1200 M⁻¹ cm⁻¹

Cc1c(C)c(C)[c-](C)c1C.[C-]#[O+].[C-]#[O+].[C-]#[O+].[Cl-].[Cl-].[Cl-].[Ir+3].[Re+].c1cnc(-c2ncccn2)nc1
molar conductivity (10% aqueous DMSO): 195 S m²/mol

O=c1[nH]c(=O)n(C2OC(CO)C(O)C2O)cc1-n1nnc2c1CCC1C(CO)C1CC2 (mixture of isomers)
molar absorption coefficient: 10100 M⁻¹ cm⁻¹

COc1c(C[C@@H](C)O)c2c3c(C[C@@H](C)O)c(OC)c(=O)c4c(O)cc(OC)c(c5c(OC)cc(O)c(c1=O)c52)c43
molar absorption coefficient (at 670 nm): 225 M⁻¹ cm⁻¹

Some of these lines once more:
CCCOc1cc(O)c2c(=O)c(OC)c(C[C@@H](C)O)c3c4c(C[C@@H](C)O)c(OC)c(=O)c5c(O)cc(OCCC)c(c1c23)c54
molar absorption coefficient (at 670 nm): 360 M⁻¹ cm⁻¹
